Results from different studies.
Every numbered part comes from another study and shows a few of its results, in no order.

Series 1
Target: Histone acetyltransferase KAT6A, winged helix 2, GST fusion (KAT6A, Homo sapiens, UniProt Q92794, residues 85-181)
Method: protein binding microarray
Molecule type: double-stranded DNA, one strand shown
Sample: in vitro
Tested at: not given
Setting: 8-mer, flanks averaged, mean of 2 arrays, mostly near background
Baseline: not given
Reading: higher = stronger binding
Residues (chain): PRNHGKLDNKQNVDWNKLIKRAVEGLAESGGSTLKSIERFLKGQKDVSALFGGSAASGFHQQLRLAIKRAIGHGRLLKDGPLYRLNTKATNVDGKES
`TGCCAAAA` gave an E-score of 0.167.
With `CATTCCAC` the E-score was -0.107.
For `GCAGGACA`, the E-score was 0.159.
`CCCTGTGA` has an E-score of -0.0288.
`CAAACCCC` has an E-score of -0.0557.
`AGTGCTTG` has an E-score of -0.0216.
With `CCTCCAAC` the E-score was 0.0268.
`GGCAACGA` has an E-score of 0.154.
The E-score of `GGGGATTA` is reported as -0.0101.
With `GATACGCC` the E-score was 0.0607.
The E-score of `GCCGCAAC` is reported as 0.115.
With `CTATCCTC` the E-score was -0.0556.
`GGGGGTGA` gave an E-score of 0.0279.
For `ACCGGGGG`, the E-score was 0.0726.
With `GATAGAAA` the E-score was -0.0406.
For `GTAATCCA`, the E-score was -0.0487.
With `ACCTTGGC` the E-score was -0.04.
The E-score of `CCACGTGG` is reported as -0.168.
The E-score of `AATTGGTG` is reported as -0.0837.
For `GAGGACTC`, the E-score was -0.221.
`AGTAACTA` gave an E-score of 0.04.
`GGTCGGCA` gave an E-score of 0.239.
`ATCGTTGC` has an E-score of 0.038.

Series 2
Target: Ras GTPase-activating protein-binding protein 1, full length (G3BP1, Homo sapiens, UniProt Q13283)
Chain of UniProt Q13283 (whole entry, looked up): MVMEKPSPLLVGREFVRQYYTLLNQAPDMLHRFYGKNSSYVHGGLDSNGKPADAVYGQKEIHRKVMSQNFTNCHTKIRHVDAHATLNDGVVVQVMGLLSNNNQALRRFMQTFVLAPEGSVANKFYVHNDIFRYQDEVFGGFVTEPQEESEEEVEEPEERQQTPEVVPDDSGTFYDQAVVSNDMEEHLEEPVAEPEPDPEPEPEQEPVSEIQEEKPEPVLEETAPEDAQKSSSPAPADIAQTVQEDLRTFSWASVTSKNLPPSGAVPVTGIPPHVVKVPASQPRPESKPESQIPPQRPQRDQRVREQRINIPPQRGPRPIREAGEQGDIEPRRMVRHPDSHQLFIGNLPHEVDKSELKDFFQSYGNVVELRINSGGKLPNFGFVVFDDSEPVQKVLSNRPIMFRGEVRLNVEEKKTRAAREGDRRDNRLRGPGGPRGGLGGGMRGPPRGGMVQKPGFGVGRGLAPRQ
Method: RNA Bind-n-Seq
Molecule type: RNA
Sample: in vitro
Tested at: 200 nM
Setting: whole 134-nt RNA, ends assumed
Added: 150 mM LiCl
Baseline: input library
Reading: higher = stronger binding
Each molecule: 7-deaza-guanosine replaces G
Shared flanks, not repeated: GGGAGUUCUACAGUCCGACGAUC … UGGAAUUCUCGGGUGUCAAGG
`UAACUUUAGAGGAGGAUCUGAUGGAUAUGGCAGUGGACGUGGAUUUGGGGAUGGCUAUAAUGGGUAUGGAGGAGGACCUGGAGAUGGCAA` has a log2 enrichment of -0.203.
With `ACCAUGCAGGUGGGCAUCUUUGGGAAGUGGGGCAAGGGGGGGAUAGGGAGGGUGGUAACACUUUGGGAACAGGUGGUCCCAGGUCGUUUC` the log2 enrichment was 0.369.
The log2 enrichment of `UCAAGUCCUGUGCUACACAUCGUAUGUACCGAAUCGGUUUGGUUUUUGGAAAGGAAAGUAUUAUGUUACGCCGUUCGGAUCUGCACUUCC` is reported as 0.0534.
With `UAACUUUAUAGGAGGAUCUGAUGGAUAUGGCAGUGGACGUGGAUUUGGGGAUGGCUAUAAUGGGUAUGGAGGAGGACCUGGAGGUGGCAA` the log2 enrichment was -0.673.
`AGUCCUGUGCUACACAUCGUAUGUACCGAAUCGGGGAGGGGUUUUUGGGGUUUGGGGAAAGUAUUAUGUUACGCCGUUCGGAUCUGCACU` gave a log2 enrichment of -0.279.
For `UUGCCACUCUAAAUUCAGAAGAGGAGAGCGACCCUCCAACCUACAAGGAUGCCUUCCCUCCACUUCCUGAGAAAGCUGCUUGCCUGGAAA`, the log2 enrichment was -0.952.
For `CACAGCCAACACGCACCCACACAGACACAGAGGGAAGGGGUUGGGAUGGGGACAGGGUGCACAGCAGGGCGGGGUAGGACCCCAGCCCCU`, the log2 enrichment was 0.706.
The log2 enrichment of `GUCCUGUGCUACACAUCGUAUGUACCGAAUCGGGGUUUUGGGGUUUUGGGUUUUGGGGAAAGUAUUAUGUUACGCCGUUCGGAUCUGCAC` is reported as -0.00271.
With `ACCAUGCAGGUGGGCAUCUUUGGGCAGUGGGGCAAGGGGGGGAUAGGGAGGGGGGUAACACUUUGGGAACAGGUGGUCCCAGGUCGUUUC` the log2 enrichment was 0.314.
With `CCUGUGCUACACAUCGUAUGUACCGAAUCGGGGAAAAAAGGAAAAAAGGGGAAAAAAGGGGAAAGUAUUAUGUUACGCCGUUCGGAUCUG` the log2 enrichment was 0.705.
With `UCAAGUCCUGUGCUACACAUCGUAUGUACCGAAUCGGAAAAAAAGGAAAGGAGGAAAGUAUUAUGUUACGCCGUUCGGAUCUGCACUUCC` the log2 enrichment was -0.65.

Series 3
Target: Interferon regulatory factor 5, full length, phosphomimetic (IRF5, Homo sapiens, UniProt Q13568-2, residues 1-514, K96S/S451D/S453D/S456D/S462D)
Method: protein-binding microarray
Molecule type: double-stranded DNA, one strand shown
Sample: in vitro
Tested at: 250 nM
Setting: 60-bp whole probe
Added: salmon DNA 0.4 mg/ml
Baseline: random background probes
Reading: higher = stronger binding
Shared flanks, not repeated: GCCTAGCAC … GTCTTGATTCGCTTGACGCTGCTG
The log fluorescence of `CAGAAAATAGAAACTCGTGTTGTGCTA` is reported as 1.82 z-score.
The log fluorescence of `GACGGTCTCGGTATCGGGACGTGCTAG` is reported as 1.04 z-score.
`TCAGTTTCACTTTCCAAACTGTGCTAG` gave a log fluorescence of 9.72 z-score.
For `GACGGACTGGGGACTGAGGACGTGCTA`, the log fluorescence was -0.576 z-score.
`GACGGACTGGTGTATCGGGACGTGCTA` gave a log fluorescence of -0.0858 z-score.
The log fluorescence of `GACGGTACCGACACTGGGGACGTGCTA` is reported as -0.286 z-score.
`GACGGTATCCTACTGCTGGCGTGCTAG` has a log fluorescence of -0.104 z-score.
For `GATTTCTTCCCTGTGAAAACGTGCTAG`, the log fluorescence was 0.905 z-score.
`GACGTACTGGGTTTCGGGACGTGCTAG` has a log fluorescence of 2.34 z-score.
`TCAGCATTCCCTTTCTCACTGTGCTAG` gave a log fluorescence of 0.652 z-score.
With `TACTAGAGTAAAACCCTGGCGTGCTAG` the log fluorescence was -0.12 z-score.
The log fluorescence of `GACGATTTCAGGCTCGAGACGTGCTAG` is reported as 0.232 z-score.
For `GACGATTCCTGTTTCGAGACGTGCTAG`, the log fluorescence was 3.17 z-score.
`TTAGGTTTCGGGACTGGATTAGTGCTA` has a log fluorescence of 6.36 z-score.
With `TTAGATTTCACTTTCGATTAGTGCTAG` the log fluorescence was 10.9 z-score.
With `GAAGGTATCCTTCTCCTGACGTGCTAG` the log fluorescence was 0.14 z-score.
The log fluorescence of `TTAGAACTGGGGTTTCGATCAGTGCTA` is reported as 5.1 z-score.

Series 4
Target: RNA binding protein fox-1 homolog 2, RRM domain, GST-SBP tag (RBFOX2, Homo sapiens, UniProt O43251-10, residues 100-194)
Method: RNA Bind-n-Seq
Molecule type: RNA
Sample: in vitro
Tested at: 365 nM
Setting: natural RNA segment, single round, ends assumed
Baseline: no-protein control
Reading: higher = stronger binding
Shared flanks, not repeated: GGGAGUUCUACAGUCCGACGAUC … UGGAAUUCUCGGGUGCCAA
Construct (chain): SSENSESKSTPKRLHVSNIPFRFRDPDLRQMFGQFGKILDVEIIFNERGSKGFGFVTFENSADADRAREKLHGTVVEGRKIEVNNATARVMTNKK
Under “RBNS enrichment (R)”, `GGACUGUGUUACUGUGCCUCCUCUGACUCAUGUGCUUUUCAGCAUAAUAGACUUAUUUAAUAUUAAUUCCUAAACUUUGCACUGUCAAUCCUCUGCUGAGUUGUGGGAGG` is recorded as 0.456.
Under “RBNS enrichment (R)”, `AUUUUGACAAAUUUAGUGUCUUGUGACCAUCACCAAGAUCAACCUGUUUUUAACCCUCCAAAAAAUUCCCUUCUCCUGCCCUCUUUCCCUGGCAACCCUGAUUGAUUAUC` is recorded as 1.55.
For `UGCUAUUGGGUUCAGAUGUGUCUAGGGGAACAAAGAAAAAUUCAUUAACAAACAUUAGCUGCUCCACCUAUGUAGAGUAUAUCAUGUGAGGUUGUUGCUUUGAAUAUCAA`, “RBNS enrichment (R)” read 0.496.
For `UAUCAUAAGAUGGACGCCAUAAUCCUGAGGCCUCCUAGAGGCUGAGGGGGCAACGGUGUGAUCCAGCUGGCUCAUCCCAGCCCAGGUGGGCCAAUUAUUCAAUUUUCAAG`, “RBNS enrichment (R)” read 0.215.
`CUGGAAAAAAAAUUAUUAAUAAUGUGAAACAAACCAACUUAAAAAGUGAUUCUUGCACAUGAAUUGUCACAUAUUAUAUGUGUUUUUUAAAGAGCCUCAGUCUGACUGAU` — result for “RBNS enrichment (R)”: 1.51.
`AAUUUUUGGACCACAAACCACCCUGCAGCUUCUUAAACCUUUCCCCAACCUACCACCCAAAAGAACCUUUUGGCCAGUUGUUAAAAGGACAGGAAUGAUUUUAUUCUGUA`: “RBNS enrichment (R)” 0.319.
Under “RBNS enrichment (R)”, `CGAUGACACCACUGAAUGUUUAGGUGGGCUAGCAUUAGCGACCCUUGUUGGCCACUUUUCAGUCCUGAGAUGAGGGCCUGAGCCAGUCUUCUCUAGGGGUGGGAUGAGAC` is recorded as 1.36.
Under “RBNS enrichment (R)”, `GCCUGUCGCUACCUGGGGCUGUGGCAGCGGAAGUGUUUAGUGACAAGUGGGUCUGGGCAGCUUCCCCUGAGCUUACGUUUUGUUUUGUUUUGUUUUUUCGAUGUGAAUAG` is recorded as 2.22.
`CCUGUGGGUUCUUGCCCAUCAGGGUAAUUGUAUUGAGAACUCAAAUAUACGUGCACUUACAUGUGUGGUUCGUACUCAAGUGAUCUAUUAUCUAGCUGCAAAGCCUGGCU`: “RBNS enrichment (R)” 0.256.
For `UUUUCAGAGUCUGUAACAUUGAAGCCCUCCAUCAGAUCUACCUAUUACUGCUGCUUUAGAGCAUGAGUGCCUAGGUGCCUGGAUGCAUGUGUGCCCGGAUGCAUGGAUGC`, “RBNS enrichment (R)” read 5.31.
`UGUCUACAAGAAUAAGUUUGUUUUGGAAAGUUGAGCUAUAGCUACAGCUCUAGCUAUCCAGCAGACUUUUCAUUAUGACUUACAUGGCAGGAGCUCUAAUUAUGCUUUAA`: “RBNS enrichment (R)” 0.351.
Under “RBNS enrichment (R)”, `AGGACUCAAAGGCAAGGUGCACGCAGAGGACGUUUGAGUCUGGGAUGAAGCAUGUACGUAUUAUUUAUAUGAUGGAAUUUCACGUUUUUAUGUAAGCAUGAAACACAGGC` is recorded as 15.

For quick reference, copied from above (series 2):
`UAACUUUAGAGGAGGAUCUGAUGGAUAUGGCAGUGGACGUGGAUUUGGGGAUGGCUAUAAUGGGUAUGGAGGAGGACCUGGAGAUGGCAA` has a log2 enrichment of -0.203.
With `ACCAUGCAGGUGGGCAUCUUUGGGAAGUGGGGCAAGGGGGGGAUAGGGAGGGUGGUAACACUUUGGGAACAGGUGGUCCCAGGUCGUUUC` the log2 enrichment was 0.369.
The log2 enrichment of `UCAAGUCCUGUGCUACACAUCGUAUGUACCGAAUCGGUUUGGUUUUUGGAAAGGAAAGUAUUAUGUUACGCCGUUCGGAUCUGCACUUCC` is reported as 0.0534.
With `UAACUUUAUAGGAGGAUCUGAUGGAUAUGGCAGUGGACGUGGAUUUGGGGAUGGCUAUAAUGGGUAUGGAGGAGGACCUGGAGGUGGCAA` the log2 enrichment was -0.673.
`AGUCCUGUGCUACACAUCGUAUGUACCGAAUCGGGGAGGGGUUUUUGGGGUUUGGGGAAAGUAUUAUGUUACGCCGUUCGGAUCUGCACU` gave a log2 enrichment of -0.279.
